Measurements pooled from the literature.
Parts stem from different laboratories: compare values within a part only. Substitutions count along the parent as printed.
Sequence of UniProt P07333 (whole entry, looked up): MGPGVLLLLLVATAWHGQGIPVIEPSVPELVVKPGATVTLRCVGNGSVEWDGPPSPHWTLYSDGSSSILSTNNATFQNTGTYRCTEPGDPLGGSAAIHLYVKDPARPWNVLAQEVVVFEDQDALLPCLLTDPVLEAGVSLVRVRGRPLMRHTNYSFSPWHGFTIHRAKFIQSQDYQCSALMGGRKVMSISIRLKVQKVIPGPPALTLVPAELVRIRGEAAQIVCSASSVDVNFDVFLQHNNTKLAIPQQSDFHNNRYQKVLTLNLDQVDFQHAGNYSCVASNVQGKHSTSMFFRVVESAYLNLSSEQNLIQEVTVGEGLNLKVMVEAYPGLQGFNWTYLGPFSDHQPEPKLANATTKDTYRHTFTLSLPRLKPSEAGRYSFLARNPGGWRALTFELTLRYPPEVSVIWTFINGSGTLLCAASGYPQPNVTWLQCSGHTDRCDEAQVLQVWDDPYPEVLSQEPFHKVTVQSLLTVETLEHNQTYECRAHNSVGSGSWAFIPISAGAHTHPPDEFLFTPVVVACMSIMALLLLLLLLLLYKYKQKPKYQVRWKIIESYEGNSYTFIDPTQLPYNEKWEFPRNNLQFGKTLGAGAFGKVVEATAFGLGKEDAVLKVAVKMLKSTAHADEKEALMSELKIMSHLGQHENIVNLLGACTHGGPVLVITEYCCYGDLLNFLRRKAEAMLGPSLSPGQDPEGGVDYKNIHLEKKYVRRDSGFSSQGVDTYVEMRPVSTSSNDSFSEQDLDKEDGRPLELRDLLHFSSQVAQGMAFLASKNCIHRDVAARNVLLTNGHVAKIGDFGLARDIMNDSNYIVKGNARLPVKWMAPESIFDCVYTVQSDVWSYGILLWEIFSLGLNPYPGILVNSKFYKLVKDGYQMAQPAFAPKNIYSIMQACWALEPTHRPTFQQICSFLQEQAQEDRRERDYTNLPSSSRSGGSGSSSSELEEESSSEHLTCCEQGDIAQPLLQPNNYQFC
Sequence of UniProt P10721 (whole entry, unmodified, looked up): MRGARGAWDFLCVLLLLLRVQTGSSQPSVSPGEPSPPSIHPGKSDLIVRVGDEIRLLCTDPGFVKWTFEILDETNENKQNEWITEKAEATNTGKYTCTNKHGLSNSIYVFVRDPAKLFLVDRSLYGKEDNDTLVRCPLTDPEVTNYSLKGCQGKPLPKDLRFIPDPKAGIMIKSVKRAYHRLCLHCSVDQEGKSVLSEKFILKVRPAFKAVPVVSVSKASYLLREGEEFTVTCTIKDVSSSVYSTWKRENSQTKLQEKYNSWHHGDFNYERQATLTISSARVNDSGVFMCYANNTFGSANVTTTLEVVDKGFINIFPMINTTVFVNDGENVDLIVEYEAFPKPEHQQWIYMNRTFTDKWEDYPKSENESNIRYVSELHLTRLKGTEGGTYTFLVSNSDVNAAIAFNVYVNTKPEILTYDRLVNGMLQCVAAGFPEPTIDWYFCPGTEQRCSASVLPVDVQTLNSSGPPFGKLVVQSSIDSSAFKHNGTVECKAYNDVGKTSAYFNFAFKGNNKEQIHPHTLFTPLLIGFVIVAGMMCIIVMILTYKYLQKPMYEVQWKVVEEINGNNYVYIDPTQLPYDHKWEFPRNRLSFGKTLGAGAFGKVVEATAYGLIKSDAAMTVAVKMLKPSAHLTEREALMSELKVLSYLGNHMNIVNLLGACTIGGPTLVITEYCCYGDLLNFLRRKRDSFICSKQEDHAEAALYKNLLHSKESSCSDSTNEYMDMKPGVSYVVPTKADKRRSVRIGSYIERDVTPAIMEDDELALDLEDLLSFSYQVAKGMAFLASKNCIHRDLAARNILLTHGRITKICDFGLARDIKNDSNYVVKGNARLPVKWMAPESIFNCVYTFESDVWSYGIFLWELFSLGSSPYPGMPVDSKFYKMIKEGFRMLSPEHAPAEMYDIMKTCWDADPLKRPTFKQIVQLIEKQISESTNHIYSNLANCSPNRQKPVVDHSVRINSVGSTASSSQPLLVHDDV
Sequence of UniProt P07948 (whole entry, looked up): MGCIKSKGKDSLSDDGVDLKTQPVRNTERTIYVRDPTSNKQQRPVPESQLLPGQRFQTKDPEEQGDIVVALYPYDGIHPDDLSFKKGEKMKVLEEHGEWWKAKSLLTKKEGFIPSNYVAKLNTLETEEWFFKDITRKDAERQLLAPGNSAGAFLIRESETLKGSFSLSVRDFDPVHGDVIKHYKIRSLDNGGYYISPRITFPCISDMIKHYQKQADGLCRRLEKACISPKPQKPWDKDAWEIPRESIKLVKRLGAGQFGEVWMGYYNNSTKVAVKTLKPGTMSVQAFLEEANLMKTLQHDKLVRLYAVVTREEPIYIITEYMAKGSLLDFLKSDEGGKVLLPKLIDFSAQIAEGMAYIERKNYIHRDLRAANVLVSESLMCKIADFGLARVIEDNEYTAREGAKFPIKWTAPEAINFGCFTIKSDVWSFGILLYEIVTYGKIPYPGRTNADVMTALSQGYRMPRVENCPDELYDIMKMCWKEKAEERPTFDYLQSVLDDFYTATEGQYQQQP
Sequence of UniProt P11802 (whole entry, looked up): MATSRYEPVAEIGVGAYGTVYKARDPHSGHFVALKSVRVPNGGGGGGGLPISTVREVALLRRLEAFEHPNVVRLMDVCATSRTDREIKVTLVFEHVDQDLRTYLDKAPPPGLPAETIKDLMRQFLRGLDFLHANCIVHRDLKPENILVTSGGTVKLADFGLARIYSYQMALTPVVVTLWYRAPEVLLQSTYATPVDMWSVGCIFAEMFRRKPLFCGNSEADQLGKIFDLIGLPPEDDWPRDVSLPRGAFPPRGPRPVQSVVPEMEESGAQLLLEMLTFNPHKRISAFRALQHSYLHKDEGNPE
Sequence of UniProt P42684 (whole entry, looked up): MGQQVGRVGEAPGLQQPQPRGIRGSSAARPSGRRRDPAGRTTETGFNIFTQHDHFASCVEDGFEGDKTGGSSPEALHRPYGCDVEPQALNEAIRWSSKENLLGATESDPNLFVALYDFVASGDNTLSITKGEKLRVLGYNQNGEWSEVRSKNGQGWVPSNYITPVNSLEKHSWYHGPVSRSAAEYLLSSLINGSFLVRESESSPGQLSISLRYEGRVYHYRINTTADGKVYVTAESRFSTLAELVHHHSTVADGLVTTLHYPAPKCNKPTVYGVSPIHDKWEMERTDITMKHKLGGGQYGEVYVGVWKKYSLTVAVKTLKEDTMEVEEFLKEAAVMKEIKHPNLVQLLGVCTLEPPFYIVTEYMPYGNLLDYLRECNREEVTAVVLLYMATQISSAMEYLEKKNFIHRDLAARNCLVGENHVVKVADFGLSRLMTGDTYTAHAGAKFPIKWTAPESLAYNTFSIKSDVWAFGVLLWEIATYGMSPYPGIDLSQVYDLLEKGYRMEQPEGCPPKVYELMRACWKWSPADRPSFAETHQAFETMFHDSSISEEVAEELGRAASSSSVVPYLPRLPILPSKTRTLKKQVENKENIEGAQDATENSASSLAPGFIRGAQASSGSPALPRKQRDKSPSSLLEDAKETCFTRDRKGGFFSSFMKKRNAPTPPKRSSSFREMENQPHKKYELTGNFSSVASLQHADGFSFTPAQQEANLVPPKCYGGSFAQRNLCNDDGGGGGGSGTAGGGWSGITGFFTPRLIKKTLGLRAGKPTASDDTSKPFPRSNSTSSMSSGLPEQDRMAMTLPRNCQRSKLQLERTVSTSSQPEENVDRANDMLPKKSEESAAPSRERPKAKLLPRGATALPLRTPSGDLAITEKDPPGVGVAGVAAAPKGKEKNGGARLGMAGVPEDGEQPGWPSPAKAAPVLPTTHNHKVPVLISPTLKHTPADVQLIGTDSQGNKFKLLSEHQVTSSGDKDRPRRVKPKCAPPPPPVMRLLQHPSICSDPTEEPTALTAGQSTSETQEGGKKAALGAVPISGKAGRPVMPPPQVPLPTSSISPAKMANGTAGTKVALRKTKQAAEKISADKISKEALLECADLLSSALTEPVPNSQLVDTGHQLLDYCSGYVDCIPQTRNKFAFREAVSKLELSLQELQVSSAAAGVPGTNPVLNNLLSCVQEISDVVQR
Sequence of UniProt Q13237 (whole entry, looked up): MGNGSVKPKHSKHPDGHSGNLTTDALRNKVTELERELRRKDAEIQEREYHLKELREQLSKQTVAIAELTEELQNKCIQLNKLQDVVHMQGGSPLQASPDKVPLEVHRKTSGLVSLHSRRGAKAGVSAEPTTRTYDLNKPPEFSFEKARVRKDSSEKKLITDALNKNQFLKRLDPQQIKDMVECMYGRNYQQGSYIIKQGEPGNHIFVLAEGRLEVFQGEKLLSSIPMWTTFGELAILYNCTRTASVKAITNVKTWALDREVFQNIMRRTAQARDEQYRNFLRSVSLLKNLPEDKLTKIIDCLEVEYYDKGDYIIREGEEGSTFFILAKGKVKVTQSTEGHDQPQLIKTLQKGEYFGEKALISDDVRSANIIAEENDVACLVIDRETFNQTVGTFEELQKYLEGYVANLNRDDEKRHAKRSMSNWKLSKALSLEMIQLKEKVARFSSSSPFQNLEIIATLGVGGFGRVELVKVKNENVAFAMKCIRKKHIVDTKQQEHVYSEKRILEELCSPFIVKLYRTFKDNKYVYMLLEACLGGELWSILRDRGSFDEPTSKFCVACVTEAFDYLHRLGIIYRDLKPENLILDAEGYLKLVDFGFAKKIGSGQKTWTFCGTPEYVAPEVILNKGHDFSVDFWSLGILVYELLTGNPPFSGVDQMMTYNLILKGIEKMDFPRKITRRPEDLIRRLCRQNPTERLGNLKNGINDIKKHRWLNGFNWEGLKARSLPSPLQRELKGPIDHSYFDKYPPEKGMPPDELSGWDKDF
Sequence of UniProt Q14012 (whole entry, looked up): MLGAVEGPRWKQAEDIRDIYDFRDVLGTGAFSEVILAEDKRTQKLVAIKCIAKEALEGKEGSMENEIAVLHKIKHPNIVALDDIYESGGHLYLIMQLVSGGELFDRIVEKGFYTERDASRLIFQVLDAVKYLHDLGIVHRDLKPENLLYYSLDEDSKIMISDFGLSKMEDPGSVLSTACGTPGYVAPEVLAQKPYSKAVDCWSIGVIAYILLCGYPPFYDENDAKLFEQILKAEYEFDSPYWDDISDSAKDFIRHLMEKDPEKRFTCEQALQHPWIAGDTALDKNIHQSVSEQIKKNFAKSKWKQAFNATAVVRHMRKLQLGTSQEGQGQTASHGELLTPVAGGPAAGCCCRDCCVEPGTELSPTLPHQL

Sample 1
Structure (SMILES): CS(=O)(=O)NCC[C@H](NC(=O)c1cncc2c1cnn2-c1ccc(F)cc1)c1ccnc(S(C)(=O)=O)c1
Concentration: 1 µM
The remaining binding was 100% (Tyrosine-protein kinase Lyn (LYN, Homo sapiens, UniProt P07948); cell-free assay, competition with immobilised ligand).
For cAMP-dependent protein kinase catalytic subunit PRKX (PRKX, Homo sapiens, UniProt P51817); cell-free assay, competition with immobilised ligand: remaining binding read 100%.
It gave 100% for remaining binding (Tyrosine-protein kinase ABL1, phosphorylated (ABL1, Homo sapiens, UniProt P00519); cell-free assay, competition with immobilised ligand).
It gave 100% for remaining binding (Macrophage colony-stimulating factor 1 receptor, autoinhibited (CSF1R, Homo sapiens, UniProt P07333); cell-free assay, competition with immobilised ligand).
It gave 100% for remaining binding (Cyclin-dependent kinase-like 2 (CDKL2, Homo sapiens, UniProt Q92772); binding, competition with immobilised ligand).
It gave 100% for remaining binding (Phosphatidylinositol 5-phosphate 4-kinase type-2 beta (PIP4K2B, Homo sapiens, UniProt P78356); cell-free assay, competition with immobilised ligand).
For cGMP-dependent protein kinase 2 (PRKG2, Homo sapiens, UniProt Q13237); cell-free assay, competition with immobilised ligand: remaining binding read 87%.
Leukocyte tyrosine kinase receptor (LTK, Homo sapiens, UniProt P29376); cell-free assay, competition with immobilised ligand — remaining binding: 100%.
For Death-associated protein kinase 3 (DAPK3, Homo sapiens, UniProt O43293); cell-free assay, competition with immobilised ligand: remaining binding read 100%.
Mast/stem cell growth factor receptor Kit (KIT, Homo sapiens, UniProt P10721, D816H); cell-free assay, competition with immobilised ligand — remaining binding: 100%.
For Tyrosine-protein kinase ABL2 (ABL2, Homo sapiens, UniProt P42684); cell-free assay, competition with immobilised ligand: remaining binding read 93%.
The remaining binding was 95% (Cyclin-dependent kinase 4, with cyclin D3 (CDK4, Homo sapiens, UniProt P11802); cell-free assay, competition with immobilised ligand).
It gave 100% for remaining binding (Serine/threonine-protein kinase SIK1 (SIK1, Homo sapiens, UniProt P57059); competition binding).
The remaining binding was 94% (Calcium/calmodulin-dependent protein kinase type 1 (CAMK1, Homo sapiens, UniProt Q14012); cell-free assay, competition with immobilised ligand).

Sample 2
Target: Tyrosine-protein kinase Fgr (FGR, Homo sapiens, UniProt P09769)
Effect on: enzyme activity
Action: inhibitor
Concentration: 0.5 µM
Relative to: control
With `COc1ccc(OC)c2c(=S)c3ccccc3[nH]c12` the remaining activity was 90.8%.
For `COc1ccc(C(=O)Nc2sc3c(c2C(N)=O)CCCC3)cc1OC`, the remaining activity was 90%.
`O=S(=O)(c1cccc2cnccc12)N1CCCNCC1` gave a remaining activity of 90.5%.
With `CC(C)[C@H](CO)Nc1nc(Nc2cc(N)cc(Cl)c2)c2ncn(C(C)C)c2n1` the remaining activity was 15%.
For `NCCNc1ncc(C(N)=O)c(Nc2cccc(C(F)(F)F)c2)n1`, the remaining activity was 48.7%.
`Nc1ncnc2n[nH]c(Nc3ccc(F)cc3)c12` has a remaining activity of 89.5%.
The remaining activity of `O=C1NC(=O)C(c2cn(CCCn3ccnc3)c3ccccc23)=C1Nc1ccccc1` is reported as 86.3%.
For `Cn1sc(=O)n(Cc2ccccc2)c1=O`, the remaining activity was 101%.
`COc1ccc(CNC(=O)Nc2ncc([N+](=O)[O-])s2)cc1` gave a remaining activity of 92.4%.
For `C#Cc1cccc(Nc2ncnc3cc(OCCOC)c(OCCOC)cc23)c1`, the remaining activity was 77.6%.
With `O=C(O)c1ccc2c3c1cccc3c(=O)n1c3ccccc3nc21` the remaining activity was 98.9%.
`O=C1NC(=O)C(c2cn(CCCO)c3ncccc23)=C1c1cnccn1` has a remaining activity of 108%.
`COc1cc2nccc(Oc3ccc(NC(=S)NC(=O)c4ccccc4C)cc3)c2cc1OC` has a remaining activity of 21.2%.
For `OCC(O)CCON=C1C(c2c(O)[nH]c3ccccc23)=Nc2ccccc21` (stereo not drawn), the remaining activity was 11.6%.
For `O=C(CCCc1ccc(-c2ccccc2F)cc1)Nc1ccc(O)cc1`, the remaining activity was 96%.

Sample 3
Target: OGT, full length, His-tagged (human)
Method: phage display, sequencing
Matrix: in vitro
Concentration: 1 µg OGT
Notes: single substitutions, 15-mer displayed peptide, unchanged parent 6.14
Relative to: input library
Reading: higher = stronger binding
Starting sequence: peptide; VAYPNSYMPKYQIST
`VAYPNMYMPKYQIST [S6M]` gave a fold enrichment of 9.83 fold.
With `VAYPDSYMPKYQIST [N5D]` the fold enrichment was 6.44 fold.
The fold enrichment of `VALPNSYMPKYQIST [Y3L]` is reported as 4.81 fold.
`VAYPNSYIPKYQIST [M8I]` gave a fold enrichment of 1.99 fold.
For `VAYPNSYMPDYQIST [K10D]`, the fold enrichment was 0.689 fold.
`VHYPNSYMPKYQIST [A2H]` gave a fold enrichment of 10.5 fold.
For `VAYPNEYMPKYQIST [S6E]`, the fold enrichment was 6.24 fold.
With `VAYPNFYMPKYQIST [S6F]` the fold enrichment was 6.38 fold.

Sample 4
Target: Prothrombin, mature alpha-thrombin (F2, Homo sapiens, UniProt P00734)
Method: aptamer microarray, sandwich
Molecule type: DNA with 2'F-ANA
Matrix: in vitro
Concentration: 200 nM
Notes: whole 15-mer aptamer, many near background
With: Cy3 exosite-II aptamer, 400 nM
Reading: higher = stronger binding
Oligonucleotide: GGTTGGTGTGGTTGG
`2'F-ANA at 1 3 8 12 13 15` — result for “mean fluorescence intensity”: 552 a.u.
`2'F-ANA at 3 4 6 8 9 11 13 15` — result for “mean fluorescence intensity”: 364 a.u.
For `2'F-ANA at 3 4 8 9 10 15`, “mean fluorescence intensity” read 261 a.u.
For `2'F-ANA at 2 3 6 9 12 13 14 15`, “mean fluorescence intensity” read 353 a.u.
Under “mean fluorescence intensity”, `2'F-ANA at 1 2 8 10 11 13 14 15` is recorded as 63.3 a.u.
For `2'F-ANA at 1 3 6 9 11 13 14`, “mean fluorescence intensity” read 70.6 a.u.
Under “mean fluorescence intensity”, `2'F-ANA at 1 3 7 8 9 10 11 14 15` is recorded as 63.1 a.u.
Under “mean fluorescence intensity”, `2'F-ANA at 4 5 7 8 11 13 14 15` is recorded as 56.9 a.u.

A few entries again (sample 4):
`2'F-ANA at 1 3 8 12 13 15` — result for “mean fluorescence intensity”: 552 a.u.
`2'F-ANA at 3 4 6 8 9 11 13 15` — result for “mean fluorescence intensity”: 364 a.u.
For `2'F-ANA at 3 4 8 9 10 15`, “mean fluorescence intensity” read 261 a.u.
For `2'F-ANA at 2 3 6 9 12 13 14 15`, “mean fluorescence intensity” read 353 a.u.
Under “mean fluorescence intensity”, `2'F-ANA at 1 2 8 10 11 13 14 15` is recorded as 63.3 a.u.
For `2'F-ANA at 1 3 6 9 11 13 14`, “mean fluorescence intensity” read 70.6 a.u.
